Literature values as cited in several papers.
Compare with care: the assays were run in different laboratories. ± gives the spread as reported.
Sequence of UniProt P21554 (whole entry, looked up): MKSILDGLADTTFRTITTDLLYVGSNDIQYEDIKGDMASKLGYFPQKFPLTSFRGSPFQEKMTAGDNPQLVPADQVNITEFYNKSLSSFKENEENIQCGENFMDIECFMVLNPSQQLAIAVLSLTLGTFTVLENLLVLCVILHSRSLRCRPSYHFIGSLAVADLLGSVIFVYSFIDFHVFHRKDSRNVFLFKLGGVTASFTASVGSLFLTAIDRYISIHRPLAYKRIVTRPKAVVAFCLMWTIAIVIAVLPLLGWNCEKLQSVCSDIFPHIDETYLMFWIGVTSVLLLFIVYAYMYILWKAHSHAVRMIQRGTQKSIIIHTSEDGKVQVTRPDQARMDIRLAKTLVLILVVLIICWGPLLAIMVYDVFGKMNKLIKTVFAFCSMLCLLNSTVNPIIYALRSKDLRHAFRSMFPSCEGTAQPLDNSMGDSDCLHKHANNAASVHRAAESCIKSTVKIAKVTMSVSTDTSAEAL

| SMILES | target | assay | test system | conditions | quantity | value |
| --- | --- | --- | --- | --- | --- | --- |
| Cc1ccccc1-c1cc(N2CCN(C)CC2)ncc1N(C)C(=O)C(C)(C)c1cc(C(F)(F)F)cc(C(F)(F)F)c1 | CYP3A4 (human) | inhibitor | human | concentration not given, with: dexamethasone, erythromycin, midazolam | exposure of co-dosed substrates | increased |
| CN1[C@@H]2CC[C@H]1C[C@@H](OC(=O)c1c[nH]c3ccccc13)C2 | CYP2D6 | inhibitor |  |  | Ki | 16 µM |
| Clc1cc2c(cc1Cl)Oc1cc(Cl)c(Cl)cc1O2 | mouse AHR | radioligand saturation binding |  | tritiated compound | Kd | 0.00068 µM |
| O=C1OC(c2ccc(O)c(S(=O)(=O)O)c2)(c2ccc(O)c(S(=O)(=O)O)c2)c2c(Br)c(Br)c(Br)c(Br)c21 | ABCC2 and OATP2B1, human | uptake, substrate | MDCK-II ABCC2/OATP2B1 transfected |  | Km | 0.0034 mM |
| Cc1ccc(OC(C)(C)C(=O)N[C@@H](C)[C@@H](Cc2ccc(OCCF)cc2)c2cccc(C#N)c2)nc1 [fluorine-18 labelled] | CNR1 (Homo sapiens, UniProt P21554) | PET | human, putamen |  | VT | 25.1 ± 13.3 mL/cm³ |
| Cc1cc(O)c2c(=O)c3c(O)cc(O)c4c5c(O)cc(O)c6c(=O)c7c(O)cc(C)c8c1c2c(c34)c(c78)c65 | UGT1A6 | enzyme activity, inhibitor | recombinant enzyme insect cells | with: serotonin glucuronidation | IC50 | 0.59 µM |
| c1cc2c(cc1[C@H]1OC[C@H]3[C@@H]1CO[C@@H]3c1ccc3c(c1)OCO3)OCO2 | CYP2C9 | inhibitor | human liver microsomes |  | Ki | 22 µM |
| CCCCCCCCCC(=O)N[C@@H](Cc1c[nH]c2ccccc12)C(=O)N[C@H](CC(N)=O)C(=O)N[C@@H](CC(=O)O)C(=O)N[C@@H]1C(=O)NCC(=O)N[C@@H](CCCN)C(=O)N[C@@H](CC(=O)O)C(=O)N[C@H](C)C(=O)N[C@@H](CC(=O)O)C(=O)NCC(=O)N[C@H](CO)C(=O)N[C@@H]([C@H](C)CC(=O)O)C(=O)N[C@@H](CC(=O)c2ccccc2N)C(=O)O[C@@H]1C | serum albumin | binding |  |  | Kd | 90.3 µM |
| Cc1ccc(OCC(=O)N(Cc2cccs2)c2ccn[nH]2)cc1 | human CYP3A4 | enzyme activity, inhibitor | human liver microsomes | with: midazolam | IC50 | 15 µM |
| C1CO1 | glutathione S-transferase | glutathione conjugation, substrate | mouse, liver cytosol |  | Km | 10 mM |

Some of these lines once more:
| SMILES | target | assay | test system | conditions | quantity | value |
| --- | --- | --- | --- | --- | --- | --- |
| Cc1ccc(OC(C)(C)C(=O)N[C@@H](C)[C@@H](Cc2ccc(OCCF)cc2)c2cccc(C#N)c2)nc1 [fluorine-18 labelled] | CNR1 (Homo sapiens, UniProt P21554) | PET | human, putamen |  | VT | 25.1 ± 13.3 mL/cm³ |
